Results collected from several papers.
Every numbered part comes from another study and shows a few of its results, in no order. Changes are numbered by the printed parent chain.

Sample 1 — method: protein-binding microarray; form: double-stranded DNA, one strand shown; matrix: in vitro; tested at: not given; reading: higher = stronger binding
Target: Transcription factor Sp1 (SP1, Homo sapiens, UniProt P08047, residues 1-785, full length assumed)
UniProt P08047, sequence (whole entry, looked up): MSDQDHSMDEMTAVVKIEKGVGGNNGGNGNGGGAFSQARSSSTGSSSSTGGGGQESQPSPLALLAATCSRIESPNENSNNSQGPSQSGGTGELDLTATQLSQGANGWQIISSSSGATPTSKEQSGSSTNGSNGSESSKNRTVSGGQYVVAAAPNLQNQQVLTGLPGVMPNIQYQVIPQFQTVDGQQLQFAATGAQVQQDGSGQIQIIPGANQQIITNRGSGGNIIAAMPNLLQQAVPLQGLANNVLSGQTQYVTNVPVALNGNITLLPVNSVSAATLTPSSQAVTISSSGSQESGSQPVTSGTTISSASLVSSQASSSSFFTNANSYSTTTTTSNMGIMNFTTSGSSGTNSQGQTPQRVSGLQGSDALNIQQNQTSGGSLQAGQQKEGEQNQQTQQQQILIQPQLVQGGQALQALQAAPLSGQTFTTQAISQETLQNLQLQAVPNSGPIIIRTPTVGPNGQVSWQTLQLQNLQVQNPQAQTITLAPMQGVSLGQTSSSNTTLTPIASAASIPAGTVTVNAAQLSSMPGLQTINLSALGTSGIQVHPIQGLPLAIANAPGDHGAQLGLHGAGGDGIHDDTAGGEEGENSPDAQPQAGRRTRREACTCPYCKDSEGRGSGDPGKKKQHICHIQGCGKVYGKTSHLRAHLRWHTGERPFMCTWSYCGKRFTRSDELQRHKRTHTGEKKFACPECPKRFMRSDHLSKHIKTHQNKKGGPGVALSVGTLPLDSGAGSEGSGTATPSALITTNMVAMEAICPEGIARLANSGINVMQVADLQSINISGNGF
Notes: k-mer, scored over probes, only values ≥0.25
Sequence	E-score
CGCCCCCG	0.341
CACGACCC	0.267
CAACTCCC	0.259
ACATTGTC	0.261
CGGGGAAC	0.281
CCCCGCCA	0.459
ACTAGTGG	0.31
CGCCCACG	0.275

Sample 2 — target: CCNE1, cyclin fold, Cln2 fusion (human); method: yeast growth competition, sequencing; matrix: yeast; notes: strong parent motif; baseline: not given; reading: higher = stronger binding; parent: viral docking peptide; TSVRRALFTGGSD
Substitution	normalised enrichment score
R5F	-0.172
V3I	1.7
S12E	6.23
G10D	6.31
R4Y	0.993
R5S	0.303
G11Y	4.9
T9Y	4.13
R4V	5.85
R5K	1.95
G11I	5.04
S2C	5.2
R5A	0.34
T9Q	5.56
A6M	4.84
S2G	6.18
S12F	5.06

Sample 3 — observed: peptide-MHC binding; form: peptide; tested at: concentration not given
Target: HLA class I histocompatibility antigen, A alpha chain, allele A*80:01 (Homo sapiens, UniProt P04439)
Molecule	binding
YLIPSVTSL	inactive
FLAAECPFL	inactive
MELSLRAIQ	inactive

Sample 4 — target: UBE2D2 UBC core domain (UniProt P62837); method: yeast two-hybrid; matrix: yeast; notes: mostly zero background; baseline: not given; reading: higher = stronger interaction
UniProt P62837, sequence (whole entry, looked up): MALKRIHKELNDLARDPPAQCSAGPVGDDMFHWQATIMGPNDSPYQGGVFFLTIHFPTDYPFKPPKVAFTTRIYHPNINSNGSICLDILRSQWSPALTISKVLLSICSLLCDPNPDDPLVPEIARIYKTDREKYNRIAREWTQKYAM
B1: RFPL2 RING domain (UniProt O75678); chain MAALFQEASSCPVCSDYLEKPMSLECGCAVCLKCINSLQKEPHGEDLLCCCSSMVSRKNKIRR
B2: RNF112 RING domain (UniProt Q9ULX5); chain QPMAPRELPTCSICLERLRDPISLDCGHDFCIRCFSTHRLPGCEPPCCPECRKICKQKRGLR
Molecule	lacZ reporter activity
B1 (RFPL2 RING domain)	0
B2 (RNF112 RING domain)	0
SYEDKSNDFVCPICFDMIEEAYMTKCGHSFCYKCIHQSLEDNNRCPKCNYVVDNIDHLY (COP1 RING domain (UniProt Q8NHY2))	0
KIKDLNEHIVCCLCAGYFVDATTITECLHTFCKSCIVKYLQTSKYCPMCNIKIHETQPLL (PCGF1 RING domain (UniProt Q9BSM1))	0

Other studies, line by line — method: cross-linking MS; matrix: cell fractions
Molecule	partner	added	cross-linked residues
SMS (Homo sapiens, UniProt P52788)	SMARCE1 (Homo sapiens, UniProt Q969G3)	DSSO	K192 to K228
NDUFS8 (Homo sapiens, UniProt O00217)	NDUFA12 (Homo sapiens, UniProt Q9UI09)	DSSO	K88 to K43
PPRC1 (Homo sapiens, UniProt Q5VV67)	RSBN1 (Homo sapiens, UniProt Q5VWQ0)	DSSO	T767 to T243
EIF5B (Homo sapiens, UniProt O60841)	LILRB5 (Homo sapiens, UniProt O75023)	DMTMM	E884 to K80

A few entries again (sample 2):
Substitution	normalised enrichment score
V3I	1.7
R5S	0.303
